Experimental data from different studies.
A part holds a random share of what one study measured. Changes are numbered by the printed parent chain.

Series 1
Target: RING finger protein unkempt homolog, zinc fingers 1-6, GST-SBP tag (UNK, Homo sapiens, UniProt Q9C0B0, residues 30-357)
Chain of UniProt Q9C0B0 (30-357, looked up): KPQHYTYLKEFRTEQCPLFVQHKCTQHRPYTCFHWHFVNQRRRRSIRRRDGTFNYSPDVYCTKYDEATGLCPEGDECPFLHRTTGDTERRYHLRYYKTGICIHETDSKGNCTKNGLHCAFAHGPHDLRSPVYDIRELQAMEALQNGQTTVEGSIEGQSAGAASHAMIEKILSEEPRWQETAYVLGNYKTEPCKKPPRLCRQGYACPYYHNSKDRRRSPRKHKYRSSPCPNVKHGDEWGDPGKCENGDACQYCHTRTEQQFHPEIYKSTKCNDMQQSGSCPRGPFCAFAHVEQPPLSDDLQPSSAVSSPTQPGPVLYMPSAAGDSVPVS
Method: RNA Bind-n-Seq
Molecule type: RNA
Matrix: in vitro
Tested at: not given
Notes: RNA with constant flanks, ends assumed
Relative to: input RNA pool
Direction: higher = stronger binding
The bound/input enrichment of `GGGAGUUCUACAGUCCGACGAUCAAGGUGCUCUUAUUGCCUCCAGAUGUUUCUGCUUUGGCCACUCAAGCAGAGAUAGAGAGCACCGUUAAACCCAAAGUUCUUGUGAAAGAAGCUGAGAAAAAACUUCCUUCCGAUACAGAACAACAGAGGAUUGAGCAUCA` is reported as 0.191 ratio.
The bound/input enrichment of `GGGAGUUCUACAGUCCGACGAUCUAUUUACAACAGCUCACCGGAGCGAGAACAGUUCCUCGGGUCUUCAUAGGUAAAGACUGCACCGGCGGAUGCAGUGAUCUAAUCUCCAUGCAACAGACUGGGGAGCUGAUGACUCGGCUGCAACAGAGGAUUGAGCAUCA` is reported as 0.164 ratio.
For `GGGAGUUCUACAGUCCGACGAUCCUUGAUGAUGAUGAGUGUCCUUUACAAAUCUUCAGGGAAUGGCCAAGUGACAAAGGGAUUUCCGUCUUUCAGUUGAAGAGGAGGCCACCAGACCACAUCCCAAAGAAAACCAAGAAACACCAACAGAGGAUUGAGCAUCA`, the bound/input enrichment was 0.229 ratio.

Series 2
Target: Sal-like protein 4, full length isoform B (SALL4, Homo sapiens, UniProt Q9UJQ4-2, residues 1-616)
Method: universal PBM
Molecule type: double-stranded DNA, one strand shown
Matrix: in vitro
Tested at: not given
Notes: 8-mer, flanks averaged, mean of replicates
Direction: higher = stronger binding
Residues (chain): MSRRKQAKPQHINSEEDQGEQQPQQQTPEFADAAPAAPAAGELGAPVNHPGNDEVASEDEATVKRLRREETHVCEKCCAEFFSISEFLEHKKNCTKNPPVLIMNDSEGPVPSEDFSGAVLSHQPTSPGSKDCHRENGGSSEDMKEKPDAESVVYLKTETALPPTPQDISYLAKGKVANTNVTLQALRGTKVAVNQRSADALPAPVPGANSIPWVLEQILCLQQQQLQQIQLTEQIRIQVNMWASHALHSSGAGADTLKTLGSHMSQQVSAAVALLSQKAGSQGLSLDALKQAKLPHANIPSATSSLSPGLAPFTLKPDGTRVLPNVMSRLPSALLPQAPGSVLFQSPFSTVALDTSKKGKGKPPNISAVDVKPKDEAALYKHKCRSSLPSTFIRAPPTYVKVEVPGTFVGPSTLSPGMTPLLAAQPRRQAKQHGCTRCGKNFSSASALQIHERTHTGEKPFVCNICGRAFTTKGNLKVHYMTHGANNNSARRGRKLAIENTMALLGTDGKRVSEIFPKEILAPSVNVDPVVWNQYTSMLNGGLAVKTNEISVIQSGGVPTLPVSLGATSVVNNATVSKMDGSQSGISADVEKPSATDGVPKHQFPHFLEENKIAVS
With `CCCATCCC` the E-score was -0.181.
The E-score of `AGCTACAC` is reported as 0.111.
For `GCAAATAC`, the E-score was 0.178.
`AAAGGTAA` gave an E-score of 0.179.
`ACCTCCAA` has an E-score of 0.0626.

Series 3
Target: CCND2, cyclin fold, Cln2 fusion (human)
Method: yeast growth competition, sequencing
Matrix: yeast
Notes: weak parent motif
Relative to: not given
Direction: higher = stronger binding
Starting sequence: PKMYT1 docking peptide (human); SFEPRNLLSLFED; partner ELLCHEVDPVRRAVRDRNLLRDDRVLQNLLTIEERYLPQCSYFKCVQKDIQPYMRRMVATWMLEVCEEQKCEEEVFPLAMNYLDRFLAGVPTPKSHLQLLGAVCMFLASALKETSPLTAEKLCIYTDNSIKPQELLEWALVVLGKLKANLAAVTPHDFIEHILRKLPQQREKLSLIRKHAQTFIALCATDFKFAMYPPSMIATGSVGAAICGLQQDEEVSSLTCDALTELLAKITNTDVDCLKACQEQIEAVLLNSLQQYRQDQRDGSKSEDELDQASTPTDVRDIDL
Under “normalised enrichment score”, `S9Y` is recorded as 0.125.
Under “normalised enrichment score”, `F2G` is recorded as 0.234.
For `E12R`, “normalised enrichment score” read 0.0806.

Mixed results
The fold induction of `PhoQ, residues 284 288 289 292 302 303 AGCYAI` is reported as 6 (PhoP, residues 12 14 15 18 19 LHTVM (Escherichia coli, UniProt P23836); Sort-seq, item: YFP reporter; E. coli; PhoQ-PhoP variant library, together with: 10 µM Mg2+; relative to: high Mg2+ state, higher = stronger signaling).

Some of these lines once more (mixed results):
The fold induction of `PhoQ, residues 284 288 289 292 302 303 AGCYAI` is reported as 6 (PhoP, residues 12 14 15 18 19 LHTVM (Escherichia coli, UniProt P23836); Sort-seq, item: YFP reporter; E. coli; PhoQ-PhoP variant library, together with: 10 µM Mg2+; relative to: high Mg2+ state, higher = stronger signaling).
